Measured values collected from several papers.
A part holds a random share of what one study measured. Substitutions count along the parent as printed.

Sample 1
Target: ABI1, truncated, D143A, DHFR fusion (Arabidopsis thaliana)
Technique: DHFR PCA, deep sequencing
Matrix: yeast
Setting: methotrexate growth selection, single substitutions
Together with: (+)-ABA 0.11 µM
Baseline: wild-type fitted maximum
Direction: higher = stronger binding
Parent: PYL1, truncated, DHFR fusion (Arabidopsis thaliana); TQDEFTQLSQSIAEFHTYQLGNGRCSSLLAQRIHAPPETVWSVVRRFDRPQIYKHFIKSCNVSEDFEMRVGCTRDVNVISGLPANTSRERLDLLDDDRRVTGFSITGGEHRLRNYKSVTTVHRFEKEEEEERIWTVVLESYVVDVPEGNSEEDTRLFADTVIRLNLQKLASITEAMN; partner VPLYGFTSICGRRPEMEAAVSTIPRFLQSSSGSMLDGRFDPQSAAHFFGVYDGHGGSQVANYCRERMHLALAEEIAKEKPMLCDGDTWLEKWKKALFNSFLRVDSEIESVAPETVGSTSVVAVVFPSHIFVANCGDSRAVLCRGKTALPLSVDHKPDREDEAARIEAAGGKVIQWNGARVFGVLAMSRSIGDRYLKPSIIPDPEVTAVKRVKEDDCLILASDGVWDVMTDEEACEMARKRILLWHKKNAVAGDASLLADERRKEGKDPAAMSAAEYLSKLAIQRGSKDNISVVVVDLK
| Change | relative binding score |
| --- | --- |
| P37H | -0.00887% |
| D3G | 13.9% |
| Y141A | 5.33% |
| T173L | -2.22% |
| H122C | -4.49% |
| H110L | 14.7% |
| S59V | 0.794% |
| K116G | 0.618% |
| L166K | 1.11% |
| R132Y | 15.9% |
| F5V | 29% |
| D96K | -4.39% |
| Q31T | 0.958% |
| R49F | -4.56% |
| S80M | 43.1% |
| E129C | 34.7% |
| M176C | 10.1% |
| I79T | 24.7% |
| S42R | 14.8% |
| S150R | 7.26% |
| V118P | -3.68% |
| V137N | 12.8% |
| T86I | 41.1% |

Sample 2
Target: Fragile X messenger ribonucleoprotein 1, C-terminal low-complexity region (Fmr1, Mus musculus, UniProt P35922)
Technique: RNA Bind-n-Seq
Molecule type: RNA
Matrix: in vitro
Tested at: 200 nM
Setting: whole 134-nt RNA, ends assumed
Together with: 150 mM LiCl
Baseline: input library
Direction: higher = stronger binding
Library: 7-deaza-guanosine replaces G
Shared flanks, not repeated: GGGAGUUCUACAGUCCGACGAUC … UGGAAUUCUCGGGUGUCAAGG
| Oligonucleotide | log2 enrichment |
| --- | --- |
| GUCCUGUGCUACACAUCGUAUGUACCGAAUCGGGGUUUUGGGGUUUUGGGGUUUUGGGGAAAGUAUUAUGUUACGCCGUUCGGAUCUGCA | -0.25 |
| GAACUUUAGAGGAGGAUCUGAUGGAUAUGGCAGUGGACGUGGAUUUGGGGAUGGCUAUAAUGGGUAUGGAGGAGGACCUGGAGGUGGCAA | 0.734 |
| UAACUUUAGAGGAGGAUCUGAUGGAUAUGGCAGUGGACGUGGAUUUGGGGAUGGCUAUAAUCGGUAUGGAGGAGGACCUGGAGGUGGCAA | 0.835 |
| GCAGGAAGUAAAAAGAAAUGGAAAUGCUUCGGAUAGUGGCAGGGGUGGGGGUUGCUAAGGAAAGGGUGGGAUGGGAGUGGGUAAAGAGUU | 1.05 |
| AAGUCCUGUGCUACACAUCGUAUGUACCGAAUCGGGAGGGUUUUUUUGGGUUUGGGAAAGUAUUAUGUUACGCCGUUCGGAUCUGCACUU | -1.79 |
| AAGUCCUGUGCUACACAUCGUAUGUACCGAAUCGGAAAAAGGAAAAAGGUUUUUGGAAAGUAUUAUGUUACGCCGUUCGGAUCUGCACUU | -2.57 |
| CAAGUCCUGUGCUACACAUCGUAUGUACCGAAUCGGAAAGGGGAAAGGGAAAGGGGAAAGUAUUAUGUUACGCCGUUCGGAUCUGCACUU | -0.479 |
| UAACUUUAGAGGAGGAUCUGAUGGAUAUGGCAGUGGACGUGGAUUGGGGGAUGGCUAUAAUGGGUAUGGAGGAGGACCUGGAGGUGGCAA | 0.661 |
| CUGUGCUACACAUCGUAUGUACCGAAUCGGGUUUUUUUGGGUUUUUUUGGGGUUUUUUUGGAAAGUAUUAUGUUACGCCGUUCGGAUCUG | 1.08 |
| AGUCCUGUGCUACACAUCGUAUGUACCGAAUCGGGGUUUUUGGGGUUUGGGGAGGGGAAAGUAUUAUGUUACGCCGUUCGGAUCUGCACU | -0.924 |
| CAAGUCCUGUGCUACACAUCGUAUGUACCGAAUCGGAGGUUUUUGGUUUUUUUGGAAAGUAUUAUGUUACGCCGUUCGGAUCUGCACUUC | -1.37 |

Sample 3
Target: CCNE2, cyclin fold, Cln2 fusion (human)
Technique: yeast growth competition, sequencing
Matrix: yeast
Setting: strong parent motif
Baseline: not given
Direction: higher = stronger binding
Parent: BRCA2 docking peptide (human); CKKRRALDFLSRL
| Change | normalised enrichment score |
| --- | --- |
| C1A | 1.06 |
| K3A | 1.9 |
| S11A | 1.82 |
| L10A | 1.66 |
| R5A L7A | 1.2 |
| L13A | 1.29 |
| R5K F9L | 1.39 |
| R12A | 1.53 |
| R5K | 0.871 |

Sample 4
Target: RING finger protein unkempt homolog, zinc fingers 1-6, GST-SBP tag (UNK, Homo sapiens, UniProt Q9C0B0, residues 30-357)
Chain of UniProt Q9C0B0 (30-357, looked up): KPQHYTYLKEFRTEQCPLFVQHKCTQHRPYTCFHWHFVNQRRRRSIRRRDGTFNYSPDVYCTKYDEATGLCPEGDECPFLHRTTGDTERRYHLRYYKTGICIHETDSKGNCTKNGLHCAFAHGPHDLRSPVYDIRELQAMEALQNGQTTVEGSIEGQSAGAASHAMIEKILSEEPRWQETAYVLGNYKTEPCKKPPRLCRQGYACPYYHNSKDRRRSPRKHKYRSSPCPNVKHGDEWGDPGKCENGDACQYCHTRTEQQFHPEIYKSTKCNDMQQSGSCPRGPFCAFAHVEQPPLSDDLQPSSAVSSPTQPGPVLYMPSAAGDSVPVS
Technique: RNA Bind-n-Seq
Molecule type: RNA
Matrix: in vitro
Tested at: not given
Setting: RNA with constant flanks, human and mouse sites, ends assumed
Baseline: input RNA pool
Direction: higher = stronger binding
Shared flanks, not repeated: GGGAGUUCUACAGUCCGACGAUC … CAACAGAGGAUUGAGCAUCA
| Oligonucleotide | bound/input enrichment |
| --- | --- |
| AUUCAUGCAUUUUAAAACUUCACUAAGAUAUUGUCUCAUAUCUUUAUGAGAAUGUCAGCUGACUUUUCAACUAACAGUAAAUGUAUUUUAGAUAUCUAAAUCUUUUGAAAUUUGGUUUUA | 0.966 ratio |
| CAUAGAGAAAUAAUUUCAUCCCCCAACUGUAGUAAUUGUUACAAUUUUAUAUAAAAAAUUAAUAGUAUAUGCAGAAAAUGACCUGAAUUCCAUCCGCAACAAGGACACAUGGCUUUACAU | 58 ratio |
| AUUGUUCACAGAGACCUCAAGGCUGAAAAUCUGUUAUUAGAUGCGGAUAUGAACAUUAAAAUAGCAGAUUUUGGUUUUAGCAAUGAAUUUACUGUUGGCAGUAAACUAGACACGUUUUGU | 1.04 ratio |
| GAGAUGAAGAAGAAGAUUAACCUGGAGUUAAGGAACAGAUCCCCGGAGGAGGUGACAGAGUUAGUCCUUGAUAAUUGCCUGUGUGUCAAUGGGGAAAUUGAAGGCCUGAAUGAUACUUUC | 0.232 ratio |
| UUUGGCUGGGACAAGGUUGAAAGGAGCUUUGCUGACUGUUUUGUUUUCCCAUCACAUUGACACUUUAUUCAAUAAGUAAAACUCAUUACAGUUCCGAGCCGUGCUGGAGGCCUCUGCUUG | 0.202 ratio |
| CCACCACCAGUGGUUCUCCAGAGCCUAAAUGGAAUACUUAAAACACACUGCUGAGUUGUAUAGUUUCUUUUUCUUUUAUAUAUAUAUAUAUGUGUAUAUGUAACAAAGCAUUAUUCAGGU | 0.588 ratio |
| GAAGACACAGAAGCAAAGAACCCAUUUUCUACUCAGGACACAGAUUUAGACUUGGAGAUGUUAGCUCCCUAUAUCCCAAUGGAUGAUGACUUCCAGUUACGUUCCUUCGAUCAGUUGUCA | 0.388 ratio |
| GGAGAGUCUCAGCCAGUGAAAAUGUUUGAUCGUCAUUCUAGCCUCGCAGGAUGCCAGAUCAUCAAUUACCGUACAGAUGCAAAGCAGAAAUGGUUGCUUCUCACUGGCAUAUCUGCACAG | 0.148 ratio |
| AACAUUUCUACUUUACCAGAGAGUCUUUUAUCAAGUCUUGUGAAACUGAAUAGUUUGACCUUAGCUAGAAAUUGCUUCCAGUUGUAUCCAGUGGGUGGUCCAUCUCAGUUUUCUACCAUC | 0.59 ratio |
| AACGGCAGGAAGACCCUUACUACUGUCCAAGGGAUCGCUGAUGAUUACGAUAAAAAGAAACUAGUGAAGGCGUUUAAGAAAAAGUUUGCCUGCAAUGGUACUGUAAUUGAGCAUCCGGAA | 0.125 ratio |
| GAACAUAAAGCUGAGAAAGUCCCAGCAGUAGCCAACUACAUUAUGAAAAUACACAAUUUUACUAGCAAAUGCCUCUACUGUAAUCGCUAUUUACCCACAGAUACUCUGCUCAACCAUAUG | 5.33 ratio |

Sample 5
Target: CREBZF, bZIP domain (human)
Technique: DHFR protein complementation
Matrix: yeast
Setting: single substitutions, most at no-binding floor
Baseline: wild-type JUN-FOS pair
Direction: higher = stronger binding
Parent: JUN, bZIP domain (human); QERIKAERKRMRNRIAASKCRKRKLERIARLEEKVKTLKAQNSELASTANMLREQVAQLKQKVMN; partner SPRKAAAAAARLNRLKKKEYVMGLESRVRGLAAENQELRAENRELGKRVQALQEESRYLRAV
| Change | binding fitness [natural log] |
| --- | --- |
| A29D | -1.52 |
| Q55I | -1.57 |
| T37H | -1.5 |
| Q55G | -1.57 |
| E32Y | -1.35 |
| V35E | -1.47 |
| A49F | -1.46 |
| E32G | -1.49 |
| A57P | -1.51 |
| T48W | -1.35 |
| A57M | -1.37 |
| A29S | -1.38 |
| E32S | -1.45 |
| E32N | -1.47 |
| Q41H | -1.42 |
| R53N | -1.49 |
| S47T | -1.49 |
| R30Y | -1.4 |
| I28S | -1.43 |
| A46M | -1.42 |
| Q41G | -1.55 |
| S43I | -1.45 |
| A46H | -1.5 |
| L52D | -1.53 |
| L45R | -1.49 |
